{"data": "Assay results from different studies", "MED23 with ELF3": "Mediator of RNA polymerase II transcription subunit 23, with ELF3 (MED23, Homo sapiens, UniProt Q9ULK4)", "GRM2": "Metabotropic glutamate receptor 2 (GRM2, Homo sapiens, UniProt Q14416)", "crk3 with CYC6": "crk3, with CYC6 (Leishmania mexicana, UniProt O15851)", "GPR35": "G-protein coupled receptor 35 (GPR35, Homo sapiens, UniProt Q9HC97)", "note": "Lines come from different studies, so protocols differ. ± marks the error that the study gave.", "chain of UniProt Q14416 (whole entry, looked up)": "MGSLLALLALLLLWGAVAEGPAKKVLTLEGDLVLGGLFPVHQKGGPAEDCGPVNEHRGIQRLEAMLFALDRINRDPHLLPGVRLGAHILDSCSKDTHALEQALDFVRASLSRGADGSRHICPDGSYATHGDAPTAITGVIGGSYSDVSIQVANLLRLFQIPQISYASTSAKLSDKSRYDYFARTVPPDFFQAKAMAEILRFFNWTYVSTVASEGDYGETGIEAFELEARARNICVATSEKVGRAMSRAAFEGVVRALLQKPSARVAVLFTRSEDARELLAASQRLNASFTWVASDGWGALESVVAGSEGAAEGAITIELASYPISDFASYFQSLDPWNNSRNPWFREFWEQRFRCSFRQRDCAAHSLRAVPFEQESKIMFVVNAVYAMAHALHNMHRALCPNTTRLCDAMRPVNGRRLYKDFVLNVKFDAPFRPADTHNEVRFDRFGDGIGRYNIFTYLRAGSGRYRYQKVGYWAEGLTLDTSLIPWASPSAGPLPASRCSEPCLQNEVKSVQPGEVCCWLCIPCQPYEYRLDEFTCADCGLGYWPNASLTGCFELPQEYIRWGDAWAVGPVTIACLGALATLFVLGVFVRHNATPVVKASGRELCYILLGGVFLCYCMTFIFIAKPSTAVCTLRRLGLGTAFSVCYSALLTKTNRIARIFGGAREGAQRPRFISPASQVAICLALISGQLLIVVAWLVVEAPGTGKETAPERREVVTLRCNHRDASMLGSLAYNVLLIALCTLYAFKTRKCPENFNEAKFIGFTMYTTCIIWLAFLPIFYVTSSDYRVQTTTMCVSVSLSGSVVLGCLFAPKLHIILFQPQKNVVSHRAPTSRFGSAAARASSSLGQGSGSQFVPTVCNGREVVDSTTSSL", "chain of UniProt Q9HC97 (whole entry, looked up)": "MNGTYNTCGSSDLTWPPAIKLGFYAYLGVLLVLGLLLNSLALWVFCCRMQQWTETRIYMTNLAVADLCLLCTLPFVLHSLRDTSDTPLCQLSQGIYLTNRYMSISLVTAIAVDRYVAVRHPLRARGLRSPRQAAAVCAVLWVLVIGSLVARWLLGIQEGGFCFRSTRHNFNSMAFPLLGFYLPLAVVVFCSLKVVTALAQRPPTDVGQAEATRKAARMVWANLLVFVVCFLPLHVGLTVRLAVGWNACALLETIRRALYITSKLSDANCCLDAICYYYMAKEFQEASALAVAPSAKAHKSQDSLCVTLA", "chain of UniProt Q00526 (whole entry, looked up)": "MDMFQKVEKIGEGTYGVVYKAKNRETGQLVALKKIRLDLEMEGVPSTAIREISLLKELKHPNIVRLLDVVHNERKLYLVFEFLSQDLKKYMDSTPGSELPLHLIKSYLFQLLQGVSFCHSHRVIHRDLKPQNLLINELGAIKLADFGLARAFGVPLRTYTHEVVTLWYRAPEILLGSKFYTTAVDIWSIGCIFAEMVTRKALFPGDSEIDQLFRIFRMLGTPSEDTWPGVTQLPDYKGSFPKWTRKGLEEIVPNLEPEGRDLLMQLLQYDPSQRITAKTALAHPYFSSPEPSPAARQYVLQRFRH", "chain of UniProt P07339 (whole entry, looked up)": "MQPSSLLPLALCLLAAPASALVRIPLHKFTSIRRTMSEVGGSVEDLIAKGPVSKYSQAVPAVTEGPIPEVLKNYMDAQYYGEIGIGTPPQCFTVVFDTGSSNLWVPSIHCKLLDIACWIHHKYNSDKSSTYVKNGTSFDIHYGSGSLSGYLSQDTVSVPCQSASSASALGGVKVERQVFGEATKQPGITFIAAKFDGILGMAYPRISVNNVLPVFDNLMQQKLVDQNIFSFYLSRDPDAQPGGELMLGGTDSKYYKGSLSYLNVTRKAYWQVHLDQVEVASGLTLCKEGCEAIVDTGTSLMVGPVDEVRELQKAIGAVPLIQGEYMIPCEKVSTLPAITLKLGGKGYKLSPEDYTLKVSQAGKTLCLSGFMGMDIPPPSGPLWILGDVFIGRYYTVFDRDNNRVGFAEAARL"}
{"Compound": "CC[C@H](C)[C@H](NC(=O)[C@H](Cc1c[nH]c2ccccc12)NC(=O)[C@@H](N)CO)C(=O)N[C@H](C(=O)N[C@@H](CCC(=O)O)C(=O)N[C@@H](CC(C)C)C(=O)N[C@@H](CC(C)C)C(=O)N[C@@H](CCC(=O)O)C(=O)O)[C@@H](C)CC", "target": "MED23 with ELF3", "assay": "SEAP reporter gene, inhibitor", "setting": "10 µM, 12 h", "endpoint": "inhibition", "value": "53%"}
{"Compound": "CC(C)C[C@H](NC(=O)[C@@H](NC(=O)[C@H](CCONC(=N)N)NC(=O)OCc1ccccc1)C(C)C)[C@@H](O)CC(=O)NCCc1ccccc1", "target": "Cathepsin D (CTSD, Homo sapiens, UniProt P07339)", "how to read": "baseline: CTSD IC50 over plasmepsin V IC50", "endpoint": "selectivity ratio", "value": "17 fold"}
{"Compound": "O=[N+]([O-])c1ccc(/C=N/Nc2nnc(N/N=C/c3ccc([N+](=O)[O-])o3)c3ccccc23)o1", "target": "iron(III)", "assay": "UV-Vis titration", "setting": "stoichiometry 2", "endpoint": "binding constant", "value": "5.5e+09 M⁻²"}
{"Compound": "FC(F)(F)c1c(-c2ccc(N3CCNCC3)c(Cl)c2)ccn2c(CC3CC3)nnc12", "target": "GRM2", "assay": "GTPγS binding, agonist, radiometric", "setting": "cell membranes", "endpoint": "Emax", "value": "68%"}
{"Compound": "CC(=O)Nc1cc(-c2ccccc2)n[nH]1", "target": "crk3 with CYC6", "assay": "IMAP fluorescence polarisation", "setting": "30 µM, with L. major CYC6", "endpoint": "inhibition", "value": "17%"}
{"Compound": "O=C(C=Cc1ccco1)c1cccc(O)c1", "target": "MED23 with ELF3", "assay": "SEAP reporter gene, inhibitor", "setting": "10 µM, 12 h", "endpoint": "inhibition", "value": "86%"}
{"Compound": "CCCCn1ccn2c(-c3ccc(Oc4ccnc(C)c4)c(F)c3)c(C)nc2c1=O", "target": "GRM2", "assay": "agonist", "setting": "no glutamate", "endpoint": "Emax", "value": "90 ± 2%"}
{"Compound": "COc1ccc(C=CC(=O)c2cccc(O)c2)cc1", "target": "MED23 with ELF3", "assay": "SEAP reporter gene, inhibitor", "setting": "10 µM, 12 h", "endpoint": "inhibition", "value": "41%"}
{"Compound": "O=C1Nc2ccc(S(=O)(=O)Nc3ccccc3)cc2C1=C1CCCC1", "target": "CDK3 (Homo sapiens, UniProt Q00526)", "assay": "kinase activity, inhibitor, kinase panel profiling", "setting": "concentration not given", "endpoint": "inhibition", "value": "33%"}
{"Compound": "O=C(C=Cc1ccco1)c1ccccc1O", "target": "MED23 with ELF3", "assay": "SEAP reporter gene, inhibitor", "setting": "10 µM, 12 h", "endpoint": "inhibition", "value": "50%"}
{"Compound": "O=C(O)/C(O)=C/c1ccc(O)cc1", "target": "GPR35", "assay": "dynamic mass redistribution, agonist", "test system": "HT-29", "setting": "1000 µM", "endpoint": "agonist activity", "value": "inactive"}
{"Compound": "FC(F)(F)c1c(-c2ccc(NC3CCOCC3)c(Cl)c2)ccn2c(CC3CC3)nnc12", "target": "GRM2", "assay": "GTPγS binding, agonist, radiometric", "setting": "cell membranes", "endpoint": "Emax", "value": "72%"}
{"Compound": "O=C(C=Cc1ccc(Cl)cc1)c1ccccc1O", "target": "MED23 with ELF3", "assay": "SEAP reporter gene, inhibitor", "setting": "10 µM, 12 h", "endpoint": "inhibition", "value": "80%"}
{"Compound": "COc1ccc(CNc2ccc(-c3ccn4c(CC5CC5)nnc4c3C(F)(F)F)cc2F)cn1", "target": "GRM2", "assay": "agonist", "setting": "no glutamate", "endpoint": "Emax", "value": "64 ± 1%"}
{"Compound": "COc1ccc(C(=O)Nc2cc(-c3ccccc3)n[nH]2)cc1", "target": "crk3 with CYC6", "assay": "IMAP fluorescence polarisation", "setting": "30 µM, with L. major CYC6", "endpoint": "inhibition", "value": "55%"}
{"Compound": "O=[N+]([O-])c1cccc(/C=N/Nc2nnc(N/N=C/c3cccc([N+](=O)[O-])c3)c3ccccc23)c1", "target": "iron(III)", "assay": "UV-Vis titration", "setting": "stoichiometry 2", "endpoint": "binding constant", "value": "3.1e+10 M⁻²"}
{"Compound": "CCC(=O)N1N=C(c2cccc(O)c2)CC1c1ccc(Cl)cc1 (centres unmarked)", "target": "MED23 with ELF3", "assay": "SEAP reporter gene, inhibitor", "setting": "10 µM, 12 h", "endpoint": "inhibition", "value": "42%"}
{"Compound": "Clc1c(-c2ccc(Oc3ccccc3)cc2)ccn2c(CC3CC3)nnc12", "target": "GRM2", "assay": "agonist", "setting": "no glutamate", "endpoint": "Emax", "value": "50%"}
{"Compound": "O=C(O)C(=O)Cc1ccc(O)cc1", "target": "GPR35", "assay": "dynamic mass redistribution, agonist", "test system": "HT-29", "setting": "1 h", "endpoint": "EC50", "value": "inactive"}
{"Compound": "CCCCn1ccn2c(-c3ccc(NC4CCOCC4)c(Cl)c3)c(C)nc2c1=O", "target": "GRM2", "assay": "G protein activation, positive allosteric modulator", "setting": "with: glutamate at EC20", "how to read": "baseline: glutamate response", "endpoint": "Emax", "value": "240 ± 6%"}
{"Compound": "O=C(O)Cc1cc(O)ccc1O", "target": "GPR35", "assay": "β-arrestin translocation, agonist, Tango reporter", "test system": "U2OS GPR35-bla", "endpoint": "EC50", "value": "inactive"}
{"Compound": "O=[N+]([O-])c1ccc(/C=N/Nc2nnc(N/N=C/c3ccc([N+](=O)[O-])cc3)c3ccccc23)cc1", "target": "iron(III)", "assay": "UV-Vis titration", "setting": "stoichiometry 2", "endpoint": "binding constant", "value": "1.5e+09 M⁻²"}
{"Compound": "Cc1ccc(Oc2ccc(-c3ccn4c(CC5CC5)nnc4c3C(F)(F)F)cc2F)c(C)n1", "target": "GRM2", "assay": "GTPγS binding, positive allosteric modulator", "setting": "with: EC20 glutamate", "how to read": "baseline: control glutamate response", "endpoint": "Emax", "value": "362 ± 84%"}
{"Compound": "O=C(C=Cc1ccc(O)cc1)c1ccccc1O", "target": "MED23 with ELF3", "assay": "SEAP reporter gene, inhibitor", "setting": "10 µM, 12 h", "endpoint": "inhibition", "value": "50%"}
{"Compound": "N#Cc1c(-c2ccc(OCC3CC3)c(Cl)c2)ccn2c(CC(F)(F)F)cnc12", "target": "GRM2", "assay": "GTPγS binding, positive allosteric modulator", "setting": "with: EC20 glutamate", "how to read": "baseline: control glutamate response", "endpoint": "Emax", "value": "209%"}
{"Compound": "Clc1nnc(N/N=C/c2ccc(Br)cc2)c2ccccc12", "target": "iron(III)", "assay": "UV-Vis titration", "setting": "stoichiometry 1", "endpoint": "binding constant", "value": "3200 M⁻¹"}
